Assay results from different studies.
Numbered parts are unrelated; each lists some results of a single study. Substitutions count along the parent as printed.

Sample 1 — technique: protein-binding microarray; form: double-stranded DNA, one strand shown; sample: in vitro; tested at: 250 nM; notes: 60-bp whole probe; together with: salmon DNA 0.4 mg/ml; baseline: random background probes; reading: higher = stronger binding
Target: Interferon regulatory factor 7, full length, phosphomimetic (IRF7, Homo sapiens, UniProt Q92985, residues 1-503, S101K/S471D/S472D/S475D/S476D/S477D/S483D/S484D/S487D)
All sequences stand within: GCCTAGCAC … GTGCTAGGTCTTGATTCGCTTGACGCTGCTG
Construct (chain): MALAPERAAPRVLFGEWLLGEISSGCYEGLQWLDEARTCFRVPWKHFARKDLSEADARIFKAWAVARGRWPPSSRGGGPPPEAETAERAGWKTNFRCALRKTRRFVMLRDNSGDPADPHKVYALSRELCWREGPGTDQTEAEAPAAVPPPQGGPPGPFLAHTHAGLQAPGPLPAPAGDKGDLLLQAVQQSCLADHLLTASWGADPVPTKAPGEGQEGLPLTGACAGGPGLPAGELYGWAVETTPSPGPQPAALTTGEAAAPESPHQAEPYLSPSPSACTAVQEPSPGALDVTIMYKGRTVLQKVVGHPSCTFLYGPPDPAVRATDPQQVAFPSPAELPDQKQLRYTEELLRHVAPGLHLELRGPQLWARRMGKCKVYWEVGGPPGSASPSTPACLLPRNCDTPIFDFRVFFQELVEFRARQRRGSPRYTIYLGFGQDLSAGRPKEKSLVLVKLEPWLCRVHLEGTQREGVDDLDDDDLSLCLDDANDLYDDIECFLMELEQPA
The log fluorescence of `CACTCTCTACATGTGTTTAA` is reported as 0.715 z-score.
`GACGGTATCCTTCTCCTGGC` has a log fluorescence of 0.218 z-score.
The log fluorescence of `TTACATCTCAGTATCGATTA` is reported as 1.17 z-score.
With `GTCGGTATCCTTCTCCTGAC` the log fluorescence was 0.635 z-score.
For `TTTTTTTTTTTTTACTTCGG`, the log fluorescence was 0.886 z-score.
For `GACGGTATCGGTCTCCGGAC`, the log fluorescence was 0.66 z-score.

Sample 2 — technique: RNA Bind-n-Seq; form: RNA; sample: in vitro; tested at: 365 nM; baseline: no-protein control; reading: higher = stronger binding
Target: RNA binding protein fox-1 homolog 2, RRM domain, GST-SBP tag (RBFOX2, Homo sapiens, UniProt O43251-10, residues 100-194)
Notes: natural RNA segment, single round, ends assumed
All sequences stand within: GGGAGUUCUACAGUCCGACGAUC … UGGAAUUCUCGGGUGCCAA
Target sequence (chain): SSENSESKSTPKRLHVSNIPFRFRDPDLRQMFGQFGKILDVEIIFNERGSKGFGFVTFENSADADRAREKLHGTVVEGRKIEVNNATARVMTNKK
`AUGAGGGCCACCAGGAAGCACAGGUCCAAGGCUGGUCCCACACUUAUCAGCAGCAACAACUGUCAGUUCAUCCUGCAUGGGAAAAAUGUUGGAAUGGGAGUCUGAAAUGG` — result for “RBNS enrichment (R)”: 2.05.
`ACAUAUUCAAGAUCCUACAGUAAGAGUGAAACAUUCACAAAGAUUUGCGUUAAUGAAGACUACACAGAAAACCUUUCUAGGGAUUUGUGUGGAUCAGAUACAUACUUGGC`: “RBNS enrichment (R)” 0.334.
For `CUUGACAUAAUUGCAUUUGGCUUGUCAUGUGCCUGGCAUUAAAAACAAUAUUGAGUUCACAUAAUAGGUAAAUGCUGGAUUUGUUUUGUUUUGUUUUGAAACAGGGUCAC`, “RBNS enrichment (R)” read 0.993.
`CAGAACUGAGUCUAUAGCCCAGGUCUGCUGGCUUCCAGCACAUGUUGUACACUAAGAUUUCAUGCAGACACCAUUGCUGUGGAGCCGAUUGAAAUUUAACCCUGCUCCAU` — result for “RBNS enrichment (R)”: 0.32.
For `CUGUCUUCCAGUACUGAUAGAAGAUGCUCCUGGGCUUCAUUCUGGAUUGUUAAACAGUAGAAAUGCAUGUCCUUCCCCAGUAAGCGGAGGACCAAUUUCUCAAGUCUCAG`, “RBNS enrichment (R)” read 0.512.
Under “RBNS enrichment (R)”, `UGUCGGCUGGAAUCCCUCAUGAGUCAAGUACUGUACCUCCCUGGCACAUGAAACUCUGGGAUCCAGUGAAGGGUCCUGCUUGGUCUUGUUUUCAGAGUCUGUAACAUUGA` is recorded as 0.495.
`CCACAGGCUCGUCUGUGUCCCUGCCACUCUGAGUUAUCCAGAAACCACCACCUACAAAUGAGGGGACUCAUCUAGAAGACCUCUAAGGUCCCCUUUUGGCUCUGAGGGGU` — result for “RBNS enrichment (R)”: 0.348.

Sample 3 — technique: DHFR PCA, deep sequencing; sample: yeast; together with: (+)-ABA 0 µM; baseline: wild-type fitted maximum; reading: higher = stronger binding
Target: ABI1, truncated, D143A, DHFR fusion (Arabidopsis thaliana)
Notes: methotrexate growth selection, single substitutions
Parent: PYL1, truncated, DHFR fusion (Arabidopsis thaliana); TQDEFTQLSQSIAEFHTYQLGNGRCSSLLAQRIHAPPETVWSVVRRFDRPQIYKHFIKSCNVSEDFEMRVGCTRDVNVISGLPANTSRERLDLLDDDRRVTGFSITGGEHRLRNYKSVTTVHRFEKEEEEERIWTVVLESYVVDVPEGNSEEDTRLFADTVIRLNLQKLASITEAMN; partner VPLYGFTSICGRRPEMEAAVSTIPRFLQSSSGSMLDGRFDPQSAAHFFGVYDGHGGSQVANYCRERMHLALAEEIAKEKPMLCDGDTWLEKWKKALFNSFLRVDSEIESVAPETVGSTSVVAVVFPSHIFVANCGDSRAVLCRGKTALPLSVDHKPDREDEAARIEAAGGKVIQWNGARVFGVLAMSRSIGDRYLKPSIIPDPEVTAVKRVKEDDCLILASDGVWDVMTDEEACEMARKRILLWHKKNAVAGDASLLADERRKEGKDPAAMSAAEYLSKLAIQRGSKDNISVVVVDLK
`S11D`: “relative binding score” 22.5%.
`C60S` — result for “relative binding score”: -0.187%.
`L8G`: “relative binding score” -2.59%.
`A175M`: “relative binding score” 20.8%.
For `Y115W`, “relative binding score” read -0.495%.

Further values, each from its own experiment
With `PhoQ, residues 284 288 289 292 302 303 TLSLKA` the fold induction was 1.83 (PhoP, residues 12 14 15 18 19 LYFRQ (Escherichia coli, UniProt P23836); Sort-seq, refers to: YFP reporter; E. coli; PhoQ-PhoP variant library, together with: 10 µM Mg2+; baseline: high Mg2+ state, higher = stronger signaling).
